Assay results gathered from unrelated publications.

`Cc1sc2c(c1C)C(c1ccc(Cl)cc1)=N[C@@H](CC(=O)OC(C)(C)C)c1nnc(C)n1-2` has a half-life of 0.897 h (CD1 mouse, male, plasma; intravenous, 5 mg/kg).
`CN[C@H](CC(C)C)C(=O)N[C@H]1C(=O)N[C@@H](CC(N)=O)C(=O)N[C@H]2C(=N)N[C@H]3C(=O)N[C@H](C(=O)N[C@H](C(=O)NCCC[N+](C)(C)C)c4cc(O)cc(O)c4-c4cc3ccc4O)[C@H](O)c3ccc(c(Cl)c3)Oc3cc2cc(c3O[C@@H]2O[C@H](CO)[C@@H](O)[C@H](O)[C@H]2O[C@H]2C[C@](C)(NCc3ccc(-c4ccc(Cl)cc4)cc3)[C@H](O)[C@H](C)O2)Oc2ccc(cc2Cl)[C@H]1O` has a half-life of 2.2 h (mouse; intravenous, 10 mg/kg).
The half-life of `CCOc1ccccc1-n1c(CN2CCNCC2)nc2ccccc2c1=O` is reported as 2.38 h (C57BL/6 mouse, male, plasma; intravenous, 1 mg/kg).
`O=C(c1cc(Cc2n[nH]c(=O)c3ccccc23)ccc1F)N1CC(CNC2CC2)C1` has a half-life of 0.9 h (female ICR mouse, plasma; intravenous, 20 mg/kg).
The half-life of `CN[C@H](CC(C)C)C(=O)N[C@H]1C(=O)N[C@@H](CC(N)=O)C(=O)N[C@H]2CN[C@H]3C(=O)N[C@H](C(=O)N[C@H](C(=O)NCCCNC(=N)N)c4cc(O)cc(O)c4-c4cc3ccc4O)[C@H](O)c3ccc(c(Cl)c3)Oc3cc2cc(c3O[C@@H]2O[C@H](CO)[C@@H](O)[C@H](O)[C@H]2O[C@H]2C[C@](C)(NCc3ccc(-c4ccc(Cl)cc4)cc3)[C@H](O)[C@H](C)O2)Oc2ccc(cc2Cl)[C@H]1O` is reported as 7.1 h (mouse; intravenous, 50 mg/kg).
For `COc1cc2c(cc1NC(=O)c1cncn1C)C[C@H]1[C@H]3CCCC[C@@]23CCN1C`, the half-life was ~2 h (C57BL/6 mouse, plasma; oral).
`[2H]C([2H])([18F])[C@]([2H])(N)C(=O)O` has a half-life of 0.0122 h (PET; athymic nude mouse, blood).
`CCC1CC(c2ccc(C(=O)O)cc2C)=NN1c1ccc(C#N)c(Cl)c1` (stereo not shown) has a half-life of > 1 h (mouse or human, microsomes or hepatocytes).
The half-life of `CC(C)C[C@H](NC(=O)CNC(=O)[C@H](CCC(N)=O)NC(=O)[C@H](CC(C)C)NC(=O)[C@H](CC(C)C)NC(=O)[C@H](CCCNC(=N)N)NC(=O)[C@H](CCC(N)=O)NC(=O)[C@H](CC(C)C)NC(=O)[C@H](CCCNC(=N)N)NC(=O)[C@H](C)NC(=O)CNC(=O)[C@H](CCC(=O)O)NC(=O)[C@H](CCCNC(=N)N)NC(=O)[C@H](CC(C)C)NC(=O)[C@H](CCCNC(=N)N)NC(=O)[C@H](CO)NC(=O)[C@H](CC(C)C)NC(=O)[C@H](CCC(=O)O)NC(=O)[C@H](CO)NC(=O)[C@@H](NC(=O)[C@H](Cc1ccccc1)NC(=O)[C@@H](NC(=O)CNC(=O)[C@H](CC(=O)O)NC(=O)C(C)(C)NC(=O)[C@@H](N)Cc1c[nH]cn1)[C@@H](C)O)[C@@H](C)O)C(=O)N[C@@H](CC(C)C)C(=O)N[C@@H](CCC(N)=O)C(=O)NCC(=O)N[C@@H](CC(C)C)C(=O)N[C@H](C(=O)NCC(=O)N[C@@H](CCCCNC(=O)COCCOCCNC(=O)COCCOCCNC(=O)CC[C@H](NC(=O)CCCCCCCCCCCCCCCCC(=O)O)C(=O)O)C(N)=O)C(C)C` is reported as ≤ 6 h (NMRI mouse, plasma).
For `CCCCCCCCCCCCCCCC(=O)NCCCC[C@H](NC(=O)[C@H](CCC(=O)O)NC(=O)[C@H](Cc1ccc(O)cc1)NC(=O)[C@H](CCC(=O)O)NC(=O)COCC(=O)NCCCOCCOCCOCCCNC(=O)[C@H](Cc1ccccc1)NC(=O)[C@H](CC(N)=O)NC(=O)[C@H](Cc1c[nH]cn1)NC(=O)[C@@H](NC(=O)[C@H](CC(=O)O)NC(=O)[C@H](CCC(N)=O)NC(=O)[C@H](CC(C)C)NC(=O)[C@H](CCCCN)NC(=O)[C@H](CCCCN)NC(=O)[C@H](CCCNC(=N)N)NC(=O)[C@H](CC(C)C)NC(=O)[C@H](Cc1c[nH]c2ccccc12)NC(=O)[C@H](CCC(=O)O)NC(=O)[C@@H](NC(=O)[C@H](CCCNC(=N)N)NC(=O)[C@H](CCC(=O)O)NC(=O)[C@H](CCSC)NC(=O)[C@H](CO)NC(=O)[C@H](CC(N)=O)NC(=O)[C@H](CC(C)C)NC(=O)[C@H](Cc1c[nH]cn1)NC(=O)[C@H](CCCCN)NC(=O)CNC(=O)[C@H](CC(C)C)NC(=O)[C@H](CC(N)=O)NC(=O)[C@H](Cc1c[nH]cn1)NC(=O)[C@H](CCSC)NC(=O)[C@H](CC(C)C)NC(=O)[C@H](CCC(N)=O)NC(=O)[C@@H](NC(=O)[C@H](CCC(=O)O)NC(=O)[C@H](CO)NC(=O)[C@@H](NC(=O)[C@@H](N)CO)C(C)C)[C@@H](C)CC)C(C)C)C(C)C)C(=O)N[C@@H](CCC(=O)O)C(=O)N[C@@H](Cc1ccc(O)cc1)C(=O)N[C@@H](CCC(=O)O)C(N)=O`, the half-life was 0.36 h (ELISA; CD-1 mouse, blood; intravenous, 10 nmol/kg, monophasic fit 0.03-7 h).

Repeated from above:
`O=C(c1cc(Cc2n[nH]c(=O)c3ccccc23)ccc1F)N1CC(CNC2CC2)C1` has a half-life of 0.9 h (female ICR mouse, plasma; intravenous, 20 mg/kg).
